# Measurements gathered from unrelated publications.
# Every numbered part comes from another study and shows a few of its results, in no order. Changes are numbered by the printed parent chain.

# Set 1
# Target: Histone acetyltransferase KAT6A, both winged helices, GST fusion (KAT6A, Homo sapiens, UniProt Q92794, residues 1-181)
# Technique: protein binding microarray
# Form: double-stranded DNA, one strand shown
# Matrix: in vitro
# Tested at: not given
# Notes: 8-mer, flanks averaged, mean of 2 arrays, mostly near background
# Reference: not given
# Direction: higher = stronger binding
# Target sequence (chain): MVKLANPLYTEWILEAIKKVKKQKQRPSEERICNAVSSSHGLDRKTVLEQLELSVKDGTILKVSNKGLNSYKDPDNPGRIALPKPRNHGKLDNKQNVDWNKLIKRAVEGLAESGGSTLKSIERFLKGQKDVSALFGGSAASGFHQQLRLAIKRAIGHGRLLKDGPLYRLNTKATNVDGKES
Sequence,E-score
CCCCATAA,-0.219
AAAGATCT,-0.0245
TACTTACA,-0.0982
GACAATAA,0.0067
CCTTAGAC,-0.0113
GCCGCCCC,0.2
ATGCGTAC,0.138
CTGCCTTC,-0.0945

# Set 2
# Target: Sal-like protein 4, full length isoform A (SALL4, Homo sapiens, UniProt Q9UJQ4, residues 1-1053)
# Chain of UniProt Q9UJQ4 (whole entry, looked up): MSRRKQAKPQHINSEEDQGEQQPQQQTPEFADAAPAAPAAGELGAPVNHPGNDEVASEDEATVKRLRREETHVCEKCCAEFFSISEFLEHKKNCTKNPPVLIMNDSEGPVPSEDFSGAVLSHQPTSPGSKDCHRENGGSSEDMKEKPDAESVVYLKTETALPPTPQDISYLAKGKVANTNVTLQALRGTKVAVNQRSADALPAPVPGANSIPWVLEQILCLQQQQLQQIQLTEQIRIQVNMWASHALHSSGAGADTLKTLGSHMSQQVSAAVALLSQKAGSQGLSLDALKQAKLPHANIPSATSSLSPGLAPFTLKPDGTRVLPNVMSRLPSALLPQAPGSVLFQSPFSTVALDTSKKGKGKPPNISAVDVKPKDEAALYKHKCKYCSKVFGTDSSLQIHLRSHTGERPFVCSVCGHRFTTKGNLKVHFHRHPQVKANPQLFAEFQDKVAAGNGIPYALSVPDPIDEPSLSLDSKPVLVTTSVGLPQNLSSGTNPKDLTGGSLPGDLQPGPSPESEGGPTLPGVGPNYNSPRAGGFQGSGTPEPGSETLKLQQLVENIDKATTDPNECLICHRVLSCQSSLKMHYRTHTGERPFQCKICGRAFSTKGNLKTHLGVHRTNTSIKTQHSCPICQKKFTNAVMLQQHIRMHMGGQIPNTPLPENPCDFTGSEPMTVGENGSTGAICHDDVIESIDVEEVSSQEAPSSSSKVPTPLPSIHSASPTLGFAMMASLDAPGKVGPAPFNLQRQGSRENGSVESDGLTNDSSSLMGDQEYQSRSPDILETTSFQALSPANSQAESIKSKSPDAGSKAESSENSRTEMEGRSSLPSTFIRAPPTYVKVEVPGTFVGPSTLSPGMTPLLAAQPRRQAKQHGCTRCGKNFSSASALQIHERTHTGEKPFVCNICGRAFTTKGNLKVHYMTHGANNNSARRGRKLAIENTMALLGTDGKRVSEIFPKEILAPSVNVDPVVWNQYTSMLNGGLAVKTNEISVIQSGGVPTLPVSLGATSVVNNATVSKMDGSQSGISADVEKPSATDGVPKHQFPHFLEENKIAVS
# Technique: universal PBM
# Form: double-stranded DNA, one strand shown
# Matrix: in vitro
# Tested at: 600 nM
# Notes: 8-mer, flanks averaged, mean of replicates
# Direction: higher = stronger binding
Sequence,E-score
CTTAGGCC,-0.271
GTGAAGCA,-0.0479
AGGAGCGA,-0.0458
ACATTTCA,0.288
AGCTAAGA,0.0314
ATATGCAT,0.325
AGCAGCGG,-0.407

# Set 3
# Target: ABI1, truncated, D143A, DHFR fusion (Arabidopsis thaliana)
# Technique: DHFR PCA, deep sequencing
# Matrix: yeast
# Notes: methotrexate growth selection, single substitutions
# With: (+)-ABA 710 µM
# Reference: wild-type fitted maximum
# Direction: higher = stronger binding
# Parent: PYL1, truncated, DHFR fusion (Arabidopsis thaliana); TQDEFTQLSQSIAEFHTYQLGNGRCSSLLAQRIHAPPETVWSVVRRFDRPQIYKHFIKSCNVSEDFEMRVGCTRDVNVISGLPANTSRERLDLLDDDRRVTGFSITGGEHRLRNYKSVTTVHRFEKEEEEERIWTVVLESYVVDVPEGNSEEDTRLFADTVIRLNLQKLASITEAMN
Substitution,relative binding score
R32P,87.5%
Q167S,102%
S140Y,28.8%
T119A,71%
R123Q,111%
T17V,93.2%
R132T,115%
S140T,34.4%
V142R,94.6%

# Single results of other studies
Substance,target,assay,system,setting,how to read,quantity,value
"PhoQ, residues 284 288 289 292 302 303 SNGLAW","PhoP, residues 12 14 15 18 19 NQGLL (Escherichia coli, UniProt P23836)","Sort-seq, measured: YFP reporter",E. coli,"PhoQ-PhoP variant library, with: 10 µM Mg2+","reference: high Mg2+ state, higher = stronger signaling",fold induction,5.51

# For quick reference, copied from above (set 2):
Sequence,E-score
ACATTTCA,0.288
AGCTAAGA,0.0314
ATATGCAT,0.325
AGCAGCGG,-0.407
